Results collected from several papers.
A part holds a random share of what one study measured. Values joined by “and” are separate records of one study, mostly repeats; a detail may differ.
Chain of UniProt P46098 (whole entry, looked up): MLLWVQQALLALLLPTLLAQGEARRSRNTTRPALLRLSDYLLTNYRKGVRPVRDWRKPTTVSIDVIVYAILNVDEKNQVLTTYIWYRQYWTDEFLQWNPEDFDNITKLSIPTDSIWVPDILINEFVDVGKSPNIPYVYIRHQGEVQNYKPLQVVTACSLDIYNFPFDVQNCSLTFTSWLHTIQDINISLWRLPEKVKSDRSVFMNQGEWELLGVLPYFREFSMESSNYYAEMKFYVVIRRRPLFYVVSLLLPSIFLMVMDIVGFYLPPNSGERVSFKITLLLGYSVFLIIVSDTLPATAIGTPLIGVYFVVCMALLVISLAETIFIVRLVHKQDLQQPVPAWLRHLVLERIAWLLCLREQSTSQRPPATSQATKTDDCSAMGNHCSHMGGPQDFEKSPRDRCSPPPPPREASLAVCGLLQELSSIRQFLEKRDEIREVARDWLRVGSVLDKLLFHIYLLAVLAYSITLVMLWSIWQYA
Chain of UniProt P29376 (whole entry, looked up): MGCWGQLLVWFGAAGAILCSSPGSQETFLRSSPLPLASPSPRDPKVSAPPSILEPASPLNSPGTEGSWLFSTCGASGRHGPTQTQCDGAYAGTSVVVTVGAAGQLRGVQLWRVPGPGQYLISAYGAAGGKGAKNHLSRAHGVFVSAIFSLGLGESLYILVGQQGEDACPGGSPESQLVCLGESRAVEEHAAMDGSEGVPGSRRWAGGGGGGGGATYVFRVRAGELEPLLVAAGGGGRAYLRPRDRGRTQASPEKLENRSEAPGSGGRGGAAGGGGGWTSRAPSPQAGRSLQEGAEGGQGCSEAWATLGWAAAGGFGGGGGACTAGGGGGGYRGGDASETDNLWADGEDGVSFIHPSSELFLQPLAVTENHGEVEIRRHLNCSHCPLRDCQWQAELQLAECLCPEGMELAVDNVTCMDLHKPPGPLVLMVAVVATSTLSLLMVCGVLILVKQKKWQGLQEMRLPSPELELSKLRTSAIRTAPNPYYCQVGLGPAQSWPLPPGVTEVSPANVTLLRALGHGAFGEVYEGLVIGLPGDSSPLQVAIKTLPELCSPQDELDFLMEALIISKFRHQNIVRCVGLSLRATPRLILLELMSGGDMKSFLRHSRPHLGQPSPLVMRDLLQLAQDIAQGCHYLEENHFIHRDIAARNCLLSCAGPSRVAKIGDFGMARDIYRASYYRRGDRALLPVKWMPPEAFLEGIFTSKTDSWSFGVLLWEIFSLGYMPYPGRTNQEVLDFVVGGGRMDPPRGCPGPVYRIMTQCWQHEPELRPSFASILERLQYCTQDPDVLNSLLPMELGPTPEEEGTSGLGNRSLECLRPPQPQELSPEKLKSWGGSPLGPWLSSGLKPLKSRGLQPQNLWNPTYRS
Chain of UniProt Q9UF33 (whole entry, looked up): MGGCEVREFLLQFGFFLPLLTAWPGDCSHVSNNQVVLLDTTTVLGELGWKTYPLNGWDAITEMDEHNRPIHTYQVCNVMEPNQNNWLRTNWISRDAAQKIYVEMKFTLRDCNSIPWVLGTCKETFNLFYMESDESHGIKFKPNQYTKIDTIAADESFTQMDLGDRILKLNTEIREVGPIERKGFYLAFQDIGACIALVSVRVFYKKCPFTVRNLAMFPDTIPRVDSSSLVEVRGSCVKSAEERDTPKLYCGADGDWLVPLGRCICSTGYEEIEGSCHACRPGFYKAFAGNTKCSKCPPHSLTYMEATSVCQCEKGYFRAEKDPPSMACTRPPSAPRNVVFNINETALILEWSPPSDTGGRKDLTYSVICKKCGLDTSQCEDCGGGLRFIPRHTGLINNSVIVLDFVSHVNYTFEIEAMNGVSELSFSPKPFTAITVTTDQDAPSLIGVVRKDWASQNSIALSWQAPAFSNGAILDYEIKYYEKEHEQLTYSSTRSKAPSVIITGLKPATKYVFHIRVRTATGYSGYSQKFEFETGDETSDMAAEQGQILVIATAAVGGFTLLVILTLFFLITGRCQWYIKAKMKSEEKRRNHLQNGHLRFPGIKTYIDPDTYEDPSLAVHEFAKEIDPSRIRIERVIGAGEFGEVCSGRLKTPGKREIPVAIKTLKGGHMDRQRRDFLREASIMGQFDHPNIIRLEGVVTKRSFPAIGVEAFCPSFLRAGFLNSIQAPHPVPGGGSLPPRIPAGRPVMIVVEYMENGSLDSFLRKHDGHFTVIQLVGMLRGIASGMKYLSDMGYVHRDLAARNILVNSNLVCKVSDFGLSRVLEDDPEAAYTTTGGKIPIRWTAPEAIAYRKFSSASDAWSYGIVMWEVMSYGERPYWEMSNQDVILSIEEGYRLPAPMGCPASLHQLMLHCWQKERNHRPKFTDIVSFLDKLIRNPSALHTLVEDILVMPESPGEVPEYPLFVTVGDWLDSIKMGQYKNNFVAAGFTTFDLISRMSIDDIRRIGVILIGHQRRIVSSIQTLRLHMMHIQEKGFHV
Chain of UniProt Q09013 (whole entry, looked up): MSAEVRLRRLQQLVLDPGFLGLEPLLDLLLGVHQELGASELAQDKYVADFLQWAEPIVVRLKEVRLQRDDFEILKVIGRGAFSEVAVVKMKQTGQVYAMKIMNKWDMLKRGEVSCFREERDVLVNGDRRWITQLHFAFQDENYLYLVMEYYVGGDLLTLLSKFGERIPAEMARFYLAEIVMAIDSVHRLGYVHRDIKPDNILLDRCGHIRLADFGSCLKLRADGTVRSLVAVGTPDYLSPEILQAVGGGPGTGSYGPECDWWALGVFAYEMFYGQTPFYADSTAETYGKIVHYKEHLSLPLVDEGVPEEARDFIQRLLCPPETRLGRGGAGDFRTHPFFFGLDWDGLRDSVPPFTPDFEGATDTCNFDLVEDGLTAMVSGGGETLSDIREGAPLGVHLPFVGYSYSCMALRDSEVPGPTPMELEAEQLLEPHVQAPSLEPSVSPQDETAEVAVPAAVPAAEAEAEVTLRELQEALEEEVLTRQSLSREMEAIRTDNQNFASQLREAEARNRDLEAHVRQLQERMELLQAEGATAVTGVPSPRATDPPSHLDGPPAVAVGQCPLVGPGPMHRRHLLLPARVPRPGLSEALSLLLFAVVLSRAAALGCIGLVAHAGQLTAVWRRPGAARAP
Chain of UniProt Q8WXR4 (whole entry, looked up): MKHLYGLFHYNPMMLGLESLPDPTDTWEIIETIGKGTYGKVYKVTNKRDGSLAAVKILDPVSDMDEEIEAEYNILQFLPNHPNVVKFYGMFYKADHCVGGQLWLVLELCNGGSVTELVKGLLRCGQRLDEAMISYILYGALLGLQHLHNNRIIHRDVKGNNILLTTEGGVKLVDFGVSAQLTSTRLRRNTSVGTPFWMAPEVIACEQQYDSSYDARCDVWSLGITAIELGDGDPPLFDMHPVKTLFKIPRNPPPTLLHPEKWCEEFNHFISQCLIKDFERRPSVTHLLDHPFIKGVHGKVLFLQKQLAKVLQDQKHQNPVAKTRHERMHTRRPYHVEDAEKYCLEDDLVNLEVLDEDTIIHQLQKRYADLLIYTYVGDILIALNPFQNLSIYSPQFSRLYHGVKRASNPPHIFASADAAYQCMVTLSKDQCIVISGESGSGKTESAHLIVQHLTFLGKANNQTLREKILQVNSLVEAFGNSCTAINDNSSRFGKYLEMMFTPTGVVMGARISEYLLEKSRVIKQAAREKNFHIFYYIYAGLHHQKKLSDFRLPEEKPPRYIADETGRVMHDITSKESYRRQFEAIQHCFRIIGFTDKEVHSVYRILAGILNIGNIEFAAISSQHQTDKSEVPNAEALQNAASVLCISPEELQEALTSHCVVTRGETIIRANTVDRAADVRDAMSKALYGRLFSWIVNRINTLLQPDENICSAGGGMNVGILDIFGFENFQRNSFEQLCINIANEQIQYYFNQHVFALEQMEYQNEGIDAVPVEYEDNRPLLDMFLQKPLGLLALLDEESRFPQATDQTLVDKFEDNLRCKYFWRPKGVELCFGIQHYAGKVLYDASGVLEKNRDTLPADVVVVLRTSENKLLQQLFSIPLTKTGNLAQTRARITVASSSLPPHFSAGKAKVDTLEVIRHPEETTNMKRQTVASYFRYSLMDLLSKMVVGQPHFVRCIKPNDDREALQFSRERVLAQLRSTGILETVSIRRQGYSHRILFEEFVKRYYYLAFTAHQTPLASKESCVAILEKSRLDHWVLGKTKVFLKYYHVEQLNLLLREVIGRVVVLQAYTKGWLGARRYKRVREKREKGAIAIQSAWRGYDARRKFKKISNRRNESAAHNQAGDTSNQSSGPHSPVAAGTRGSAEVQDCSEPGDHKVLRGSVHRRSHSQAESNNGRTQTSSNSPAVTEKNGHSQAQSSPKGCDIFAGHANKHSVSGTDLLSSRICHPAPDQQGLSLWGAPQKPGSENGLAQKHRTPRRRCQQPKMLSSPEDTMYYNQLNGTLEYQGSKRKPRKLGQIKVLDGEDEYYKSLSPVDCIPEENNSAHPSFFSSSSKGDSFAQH

Set 1 — cell line: A-375; concentration: 100 µM; time: 18 h; endpoint: viability
Compound = COc1cc(NC(C)CCCN)c2ncccc2c1 (centres unmarked); result = 8.29%
Compound = CCOc1ccccc1O[C@H](c1ccccc1)[C@H]1CNCCO1 (racemic); result = 104%
Compound = CNCCC=C1c2ccccc2CCc2ccccc21; result = 7.66%
Compound = CCCCC[C@H](O)/C=C/[C@H]1[C@H](O)CC(=O)[C@@H]1CCCCCCC(=O)O; result = 99.5%
Compound = C[C@]12CCC(=O)C=C1C=C[C@@H]1[C@@H]2CC[C@@]2(C)[C@H]1CC[C@@]21CCC(=O)O1; result = 87.5%
Compound = C[C@@H]1O[C@@H](OC[C@H]2O[C@@H](Oc3c(-c4ccc(O)c(O)c4)oc4cc(O)cc(O)c4c3=O)[C@H](O)[C@@H](O)[C@@H]2O)[C@H](O)[C@H](O)[C@H]1O; result = 98.1%

Set 2 — method: Incucyte 3D growth; concentration: 30 µM; reading: higher = more growth; endpoint: spheroid area
Structure (SMILES): CC(C)(C(=O)O)[C@H](NC(=O)Cc1cccc(I)c1)c1ccc2oc(=O)[nH]c2c1
cell line = A375; conditions = 216.52 h; result = 1.7e+08 a.u. and 1.51e+08 a.u. and 1.43e+08 a.u. and 1.57e+08 a.u. and 1.77e+08 a.u. and 1.61e+08 a.u.
cell line = KP-4; conditions = 246 h; result = 2.36e+07 a.u. and 6.03e+07 a.u. and 5.26e+07 a.u. and 8.34e+07 a.u. and 4.45e+07 a.u. and 5.76e+07 a.u.
cell line = A375; conditions = 264.52 h; result = 2.06e+08 a.u. and 1.77e+08 a.u. and 1.97e+08 a.u. and 1.88e+08 a.u. and 1.75e+08 a.u.

Set 3 — effect on: enzyme activity; concentration: 5 µM; endpoint: remaining activity
SMILES: O=C(Nc1cnn(-c2csc(C(=O)NC3COC3)c2)c1)Nc1c(F)cccc1Cl
target = LTK (Homo sapiens, UniProt P29376); scale = reference: untreated control; result = 91.3%
target = DMPK (Homo sapiens, UniProt Q09013); scale = reference: untreated control; result = 110%
target = EPHA6 (Homo sapiens, UniProt Q9UF33); scale = reference: untreated control; result = 95.3%
target = Myosin-IIIb (MYO3B, Homo sapiens, UniProt Q8WXR4); assay = inhibitor; result = 95.6%

Single results of other studies
SMILES = CN([C@@H]1CCc2c(CC(=O)O)c3cc(S(C)(=O)=O)ccc3n2C1)S(=O)(=O)c1ccc(F)cc1; target = 5-hydroxytryptamine receptor 3A (HTR3A, Homo sapiens, UniProt P46098); assay = binding, radioligand binding; conditions = 10 µM; endpoint = inhibition; result = -2.99%
